Assay results from different studies.
Each numbered part is a random draw from the data of one study; scales do not carry over between parts.

Study 1 — technique: universal PBM; form: double-stranded DNA, one strand shown; sample: in vitro; concentration: not given; direction: higher = stronger binding; measurement: E-score
Target: Sal-like protein 4, full length isoform B (SALL4, Homo sapiens, UniProt Q9UJQ4-2, residues 1-616)
Notes: 8-mer, flanks averaged, mean of replicates
CCTTGTAG: -0.0195
GAGGGCGC: -0.369
GCTTGTGA: -0.116
CTGGGGGA: -0.235
ATCAGGGA: -0.0619
CCCCGGCC: -0.317
ACAAAGTG: -0.00939
CTGAGCCC: -0.263
ATTGTAGG: 0.271
CTTGGTAA: 0.146
CGTAAAGC: -0.0819
CGTATTCA: 0.255
CGGGAGAG: -0.264
AACACATA: 0.321
AACCAGCA: -0.0956
CAATGATG: 0.135
GCCATCGA: -0.119
GACCTAAC: -0.101
GAGGGTGA: -0.162
AAGAAGTG: 0.0128
AAGCTCCT: -0.129
AAACCTCT: 0.0147
ACAGAAGA: 0.0653
CACCAAAG: 0.0297
AAGTTAGC: 0.131

Study 2 — technique: RNAcompete; form: RNA; sample: in vitro; concentration: 20 nM; notes: 7-mer, probes averaged, single round; reference: mean of 7-mers; direction: higher = stronger binding; measurement: 7-mer Z-score
Target: PABPC1L2, full length, GST fusion (mouse, UniProt A0ABA7IW68)
Construct (chain): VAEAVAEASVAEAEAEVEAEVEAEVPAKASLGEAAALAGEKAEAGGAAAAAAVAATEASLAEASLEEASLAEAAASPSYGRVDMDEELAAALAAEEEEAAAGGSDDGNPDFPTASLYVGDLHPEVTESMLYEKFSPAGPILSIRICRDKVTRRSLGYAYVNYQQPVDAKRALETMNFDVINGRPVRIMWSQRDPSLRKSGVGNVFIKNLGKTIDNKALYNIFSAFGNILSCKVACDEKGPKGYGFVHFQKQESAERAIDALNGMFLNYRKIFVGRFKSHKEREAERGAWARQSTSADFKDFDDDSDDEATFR
UUCACAU: -0.324
GUAUGGG: 0.0587
CCUGCCA: -0.282
GCCACCC: -0.11
GGGGCUA: 0.495
GCUUGGC: -0.05
GGCGUAC: -0.0391
CCGUUAU: -0.338
UUACCAG: -0.213
UUGCCAC: -0.168
GCGAAGC: -0.132
AGGGGGC: 0.586
AGCGUGC: -0.0826
AUAGGGU: 0.0732
CGUAUGG: -0.242
CGCCAUU: -0.271
UUUAAUG: 0.182
AAUAACG: 0.39
UCGGGAG: -0.0573
CUCAAUA: -0.0464

Study 3 — technique: protein binding microarray; form: double-stranded DNA, one strand shown; sample: in vitro; concentration: not given; reference: not given; direction: higher = stronger binding; measurement: E-score
Target: Histone acetyltransferase KAT6A, both winged helices, GST fusion (KAT6A, Homo sapiens, UniProt Q92794, residues 1-181)
Notes: 8-mer, flanks averaged, mean of 2 arrays, mostly near background
Construct (chain): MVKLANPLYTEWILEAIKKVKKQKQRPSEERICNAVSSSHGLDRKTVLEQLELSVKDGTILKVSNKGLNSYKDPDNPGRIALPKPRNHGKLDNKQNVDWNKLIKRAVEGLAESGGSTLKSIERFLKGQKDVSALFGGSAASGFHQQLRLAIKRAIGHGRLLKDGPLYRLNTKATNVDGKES
AAGAGCGG: 0.188
AGCCATAT: -0.17
GGGTCTGA: 0.00081
CCTTACGA: -0.0201
AGAGCCTA: -0.199
CCACCAAC: -0.0602
CGACCTGA: 0.000335
ATAAGAGC: 0.101
AGCCAGAT: -0.263
GATGGACC: -0.0628
TTGATCAA: 0.0471
AAAGACAT: -0.0814
ATCTAGTG: -0.134
CAATCCTG: -0.157
CGAACTGA: -0.00209
AACCAAGT: 0.0688
CGGAGAAA: 0.203
GGAGTCGA: -0.0526
CTGAGTAC: -0.0703
TATGGTGA: -0.0408
CCGAATTA: -0.0199
AGCTTGTA: -0.175
GTCACGCA: 0.0713

Study 4 — technique: RNA Bind-n-Seq; form: RNA; sample: in vitro; concentration: 365 nM; reference: no-protein control; direction: higher = stronger binding; measurement: RBNS enrichment (R)
Target: RNA binding protein fox-1 homolog 2, RRM domain, GST-SBP tag (RBFOX2, Homo sapiens, UniProt O43251-10, residues 100-194)
Notes: natural RNA segment, single round, ends assumed
Constant ends, left off below: GGGAGUUCUACAGUCCGACGAUC … UGGAAUUCUCGGGUGCCAA
Residues (chain): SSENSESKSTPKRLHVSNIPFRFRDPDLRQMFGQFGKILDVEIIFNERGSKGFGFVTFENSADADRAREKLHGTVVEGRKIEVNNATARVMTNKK
CUAUGCUCUACCCCCAGGGUAGCAUCUCAGCUUCCGAACCCUGGGCUGUUUCCUUAGUCUUCAUUUUAUAAAAGUUGUUGCCUUUUUAACGGAGUGUCACUUUCAACCGG: 0.541
UCCAGUUCUGUUUUUGCAUCGUGACAAAGAGAGCACAGCCAAUUCUCAUGCUGGCUUCUUCAGAUACUUUGAAAAACCCGGACAGCCACACCAGAGAGGCCUUAUAGCGG: 0.322
AUAAUUAUACUUGCACAUGAAAAUAAAAUAUAAAGUCAAUAAUAGUCCUUGUAGCCCAAUGGGAAUUGAUUCUGUUUAUUGUCUGUACCAUUUUGCUACCAGUUACAUUG: 0.73
UGGAUUUCUUCUGGGAGCAGCAGAGUCCCUUGUAAAAGACUGCUUUUGUACAGAAUGCGCUAUAAAUUAUACCUUUAAGAAUGUGGGGCCUUUUUUAUGAUUUUGUAAGU: 20.1
CAGGUCAGGAGUACAGCUUGUGAAACUCACCAAAAUGAAUAGUUGUUUCGUUACAUUUAGAUGAAAGUUAAACUUUACUGAAUUUCAGUACAUUAGUUUUUACACUAAAA: 1.4
AGCUGGCGGGCUGGCCUUCUGGACCCUGGCUUCUCCCCACUGUAACGCCUGUUACACACAAACUGUUGUGGGUUCCUGCCAGGCUUGAAGAAAAUGAUCUGAAUUUUUUC: 0.633
UGGGAGUUAGCAACAUUUGAGGAUGUUGUAGGUACUUUAUUACAUUUUUUUGUAGUUUAAAGAGCUUUAUUAAUGCAAUAAAUUAACUUUGUACAUUUUUAUAUUAAAAA: 0.616
GAAUUUGAUGAAGAGCAGUCUUCCUCUGCUGCCCUUUACUAAGCAAAACCUGGAGCAAUUUAAAUAGGCUAAAUGGUUUUGAUUAAAUCUUGAGCUCCGAGUUGGAAGGA: 0.305
UGAAGAGUGCAAUGGCAAAACAAGAGCAAAAAGCACUUCCUCCCAUGACCUUACAGUAACCAUACUGAUUGAAUCCCCAGGGACAUUCCAUCAUUGCAAUAGCUCAGAUU: 0.319
GUUCCCCCGCCGCUUUUCUCCUCUUUCCUCUCUUUGUUCUCAGCUCCCCCUGUCCCCUCAGCUCCAGACGUAGGGGAGGGGUUGCCACAGGCCUCCCUGUUUGAAGCCUG: 1.19
UGCUGAACUGACAUGAACAACCGAGAAUGUCCUUCUUGGUUGUCAAAAGACAGUUUUCCAUCCUACAGUAAUUGGGAUGAAGAACAAAACAGUUGAUCCUUGUAAAUACA: 0.244
UUUUUAUAUUUUUAGAGACAGGGAUUCAACAUGUUGGUUAGGCUGGUCUUGAACUCCUCACCUCAGGUGAUCCACAUGACUCUGCCUCCCAAAGUGCUGCCAUUACAGGC: 0.425

Study 5 — technique: protein-binding microarray; form: double-stranded DNA, one strand shown; sample: in vitro; concentration: 2200 nM top; notes: 60-bp whole probe; with: salmon DNA 0.4 mg/ml; reference: random background probes; direction: higher = stronger binding; measurement: fitted relative affinity; constant ends, left off below: GCCTAGCAC … GTCTTGATTCGCTTGACGCTGCTG
Target: Interferon regulatory factor 7, full length, phosphomimetic (IRF7, Homo sapiens, UniProt Q92985, residues 1-503, S471D/S472D/S475D/S476D/S477D/S483D/S484D/S487D)
Target sequence (chain): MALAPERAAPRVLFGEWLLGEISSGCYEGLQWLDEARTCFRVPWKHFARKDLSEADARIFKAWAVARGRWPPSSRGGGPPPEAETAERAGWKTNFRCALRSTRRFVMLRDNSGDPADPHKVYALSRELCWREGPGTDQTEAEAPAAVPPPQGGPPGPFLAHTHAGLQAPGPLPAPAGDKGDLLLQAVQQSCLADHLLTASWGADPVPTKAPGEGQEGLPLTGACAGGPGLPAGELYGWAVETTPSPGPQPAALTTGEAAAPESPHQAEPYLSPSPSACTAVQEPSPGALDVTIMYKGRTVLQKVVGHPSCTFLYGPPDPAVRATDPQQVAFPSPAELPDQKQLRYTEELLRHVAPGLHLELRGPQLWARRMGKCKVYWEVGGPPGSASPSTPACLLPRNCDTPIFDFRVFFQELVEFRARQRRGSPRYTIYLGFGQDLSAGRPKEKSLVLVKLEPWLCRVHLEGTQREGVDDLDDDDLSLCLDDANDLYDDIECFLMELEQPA
CTAGGTATCGACTTTCGGTTAGTGCTA: 5.48 z-score
GATGGTATCGGGACTGGGGACGTGCTA: -0.364 z-score
TTAGAACTGAGACTGGATTTGTGCTAG: -0.411 z-score
TTAGGTTTCCTTTTCCTATAGTGCTAG: 5.41 z-score
TTAGATTTCGGGTAGCGATTAGTGCTA: 1.99 z-score
AGAAACTTTTTTCTGATTGAGTGCTAG: 1.53 z-score
TTAGGTATCGGGTATCGGTAAGTGCTA: 0.579 z-score
TTAGGTATCCACTATCGGTTAGTGCTA: 0.862 z-score
TTAGGTCTCGCTCTCGGTTAGTGCTAG: 0.97 z-score
GTCGGACTGGACTATCGGGACGTGCTA: -0.537 z-score
GGTCATGTCTGTGTCACAGAGTGCTAG: 0.316 z-score
TTGGGACTGGGTTTCGGTTAGTGCTAG: 3.56 z-score
GAAGGTCTCGGTTTCGGGACGTGCTAG: 3.93 z-score
TCAGCTTTCCCGTCCAGACTGTGCTAG: 1.92 z-score
GCCGGTTTCGGTATCGGGACGTGCTAG: 9.7 z-score
AAGCCATTGGTCTTCACTTGGTGCTAG: 0.141 z-score
GGCGGTATCGGTCTCGGGACGTGCTAG: -0.589 z-score
TTAGGTATCAGTATCGGTTAGTGCTAG: 0.673 z-score
GACAGTTTCGGGTTTCGGGACGTGCTA: 12.1 z-score
GTAGGTATCGACTATCGGTTAGTGCTA: 0.37 z-score
GACGGAGTGCTTCTCCTGACGTGCTAG: 0.519 z-score
TCACATTGCTGCCCTCAGACTGTGCTA: 1.7 z-score
TTAGGTATCGACTATCGGCTAGTGCTA: 0.0843 z-score
TCATCCTTTACTTTCTTACTGTGCTAG: 3.1 z-score
GACGGCATCGGGTTTCGGGACGTGCTA: 0.725 z-score

Some of these lines once more (study 3):
CGACCTGA: 0.000335
CTGAGTAC: -0.0703
GGAGTCGA: -0.0526
AAAGACAT: -0.0814
CGGAGAAA: 0.203
AAGAGCGG: 0.188
